# Measurements gathered from unrelated publications.
# Each numbered part is a random draw from the data of one study; scales do not carry over between parts.

# Series 1 — method: protein binding microarray; form: double-stranded DNA, one strand shown; medium: in vitro; tested at: not given; relative to: not given; reading: higher = stronger binding
# Target: Histone acetyltransferase KAT6A, both winged helices, GST fusion (KAT6A, Homo sapiens, UniProt Q92794, residues 1-181)
# Notes: 8-mer, flanks averaged, mean of 2 arrays, mostly near background
# Construct (chain): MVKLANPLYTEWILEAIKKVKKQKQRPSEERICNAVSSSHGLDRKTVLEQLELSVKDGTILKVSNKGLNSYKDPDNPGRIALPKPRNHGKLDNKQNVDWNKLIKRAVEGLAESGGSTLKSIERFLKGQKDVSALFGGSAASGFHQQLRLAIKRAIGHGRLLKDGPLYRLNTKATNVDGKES
Strand,E-score
ACGCGTTG,0.278
CGTAGTAA,0.0348
GTAGTTAA,0.0617
GTGGACAA,-0.046
AGTGTCGC,0.0575
CAGGCCAC,-0.0245
ACGTGGCC,-0.165
GAGGCCAC,-0.153
GCTTAGCA,0.0419
CCCGAGCA,-0.0934
ACGACTAA,-0.141
ACGAGATA,-0.139
ATTTTGTC,-0.018
CATGCCTA,-0.124
ACCCTTCG,0.0264
AAGCTGAA,-0.0434
CCAGCACG,0.0978
CTAGCATA,-0.0666
ACGTCCGC,0.243
GTCGATAA,0.0411
GAGGATTA,-0.182
CGGCTACG,0.297
AGCACCAA,-0.148
AGCTAGAG,-0.088
GAGTGGGC,0.0116

# Series 2 — method: RNA Bind-n-Seq; form: RNA; medium: in vitro; tested at: 365 nM; relative to: no-protein control; reading: higher = stronger binding
# Target: RNA binding protein fox-1 homolog 2, RRM domain, GST-SBP tag (RBFOX2, Homo sapiens, UniProt O43251-10, residues 100-194)
# Notes: natural RNA segment, single round, ends assumed
# Residues (chain): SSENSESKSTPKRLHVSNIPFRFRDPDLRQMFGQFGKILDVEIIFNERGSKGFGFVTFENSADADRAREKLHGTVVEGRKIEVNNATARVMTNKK
Strand,RBNS enrichment (R)
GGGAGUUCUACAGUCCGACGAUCUCAGCCCUCCGGAGAGACUACCCUAGUCUUUCUGGGGUGUUUAUGUCCUCAGCUGAAGCCUGGCCUAGUUGCUGAGAGGGGCUGGGGAGAUGGGGCGGGAGGGCCAGACUUGGAAUUCUCGGGUGCCAA,0.246
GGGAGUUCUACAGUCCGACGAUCUUCUUCUGGAAAUAGUUCAUCAAGUAUGUUUGUUGCUCAUUGUGAUACAUUAAAAACUGUAUCUGCAUAUUUACUCUGGGUCUUCUUUCUGAGUGGGCUUCUGCAGUGUUUGGAAUUCUCGGGUGCCAA,0.595
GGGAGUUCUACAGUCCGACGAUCGACUCUACACAAGAUUAUUUAACAGGACACUAAGAUGGGGAAACGUCCUCGUGAGAUGAGAGCCUGAGCCAGGCAGCAGAGCGCUCGCUGCUGUGUAGACUGUAGGCUGCUGGAAUUCUCGGGUGCCAA,0.617
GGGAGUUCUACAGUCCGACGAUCGGGAGGGGAGGGUGUUCUUCCCAACCUAGGGUCCCAGCUGUCUUCACCUGUUCUUACCCACGUCCCUCCUCAAUAAAGAAGCCAGUCAGGCGUGGUUAUAUGUUGCUACGUGGAAUUCUCGGGUGCCAA,0.244
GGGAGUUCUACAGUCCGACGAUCAUGUGCAAGGGUUUGGCUCGUGUCAUUUGAAAACUCCUGGCUUAUCUAAUGGGACCAGCUUGUGAAGUUUAUAGCCUUAAAGAAAUCUCUGUGCUAAGUUUUAGAACAGUUGGAAUUCUCGGGUGCCAA,1.18
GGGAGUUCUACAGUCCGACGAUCCCACCAGCUCUCUCUAUCAUGGAUCUGCACCUUCUCGCCCUUGUCUCUCCUGAGUCAUGACGGGUCAUACUGAUUCUUGUUCCACUGAUGAUUUUCUCUGAUGAGGUCCUUGGAAUUCUCGGGUGCCAA,0.232
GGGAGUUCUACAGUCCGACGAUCCAGAGUAGUUUGGUUUUUAAAAUAUCUGGUGAUGUCAUUCUCUUGCUUAGAACACUAGCUUCCUGUUACGCUUCAUCUAAAAUGCAAAUUCUUACACCCAGCUUACGAGAUGGAAUUCUCGGGUGCCAA,4.72
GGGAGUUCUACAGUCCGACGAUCAUUGUUUAUUUCAAGAAAUAGCUUUGUUACAGUAAAAUAUUUGUCAUUUAAAACCCAGCUGUUUAGCAAGGAGUGUUGGCUCACACCUACAAUCCCAGCAUUUGGGAAGCUGGAAUUCUCGGGUGCCAA,0.763

# Series 3 — method: universal PBM; form: double-stranded DNA, one strand shown; medium: in vitro; tested at: not given; reading: higher = stronger binding
# Target: Sal-like protein 4, full length isoform B (SALL4, Homo sapiens, UniProt Q9UJQ4-2, residues 1-616)
# Notes: 8-mer, flanks averaged, mean of replicates
Strand,E-score
AGACCTCA,-0.0551
GACGAAGA,0.041
CGGCGACG,-0.341
GATCAAGA,0.122
CCGCGATC,-0.265
ATCCTCAA,0.108
CCCAACCA,-0.12
ACAGAGGA,-0.0364
TAAAGAAA,0.279
TAGCTTGA,-0.183
ACCCTCCG,-0.252
AACGCCAT,-0.00316
CAGTGTAA,0.163
CCTCGCAC,-0.177
GACATCTA,0.0617
CCGACGGA,-0.207
CCGGGTAC,-0.308
AACGGTCT,-0.111
ATTAGACG,0.19
CTGAGACC,-0.218
GGACAGGA,-0.213
CATGTGCG,0.0177
CGGGGCCC,-0.416
ACCAATCT,-0.0146
CCCATGGA,-0.125

# Series 4 — method: RNA Bind-n-Seq; form: RNA; medium: in vitro; tested at: 200 nM; notes: whole 134-nt RNA, ends assumed; with: 150 mM KCl; relative to: input library; reading: higher = stronger binding
# Target: Ras GTPase-activating protein-binding protein 1, full length (G3BP1, Homo sapiens, UniProt Q13283)
# UniProt Q13283, sequence (whole entry, looked up): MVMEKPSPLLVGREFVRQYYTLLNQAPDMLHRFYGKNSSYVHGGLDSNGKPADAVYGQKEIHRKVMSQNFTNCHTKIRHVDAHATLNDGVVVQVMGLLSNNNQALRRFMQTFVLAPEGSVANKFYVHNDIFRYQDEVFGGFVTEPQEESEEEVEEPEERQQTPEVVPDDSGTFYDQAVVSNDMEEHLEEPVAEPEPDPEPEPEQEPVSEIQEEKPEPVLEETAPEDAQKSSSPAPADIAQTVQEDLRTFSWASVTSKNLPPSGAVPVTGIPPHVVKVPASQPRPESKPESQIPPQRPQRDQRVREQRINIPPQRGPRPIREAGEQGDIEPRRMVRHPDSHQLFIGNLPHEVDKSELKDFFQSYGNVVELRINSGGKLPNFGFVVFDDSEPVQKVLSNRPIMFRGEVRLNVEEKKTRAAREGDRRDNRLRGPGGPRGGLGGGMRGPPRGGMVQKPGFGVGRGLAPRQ
Strand,log2 enrichment
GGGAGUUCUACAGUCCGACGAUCUCAAGUCCUGUGCUACACAUCGUAUGUACCGAAUCGGGGUUGGGGUUGGGUUGGGAAAGUAUUAUGUUACGCCGUUCGGAUCUGCACUUCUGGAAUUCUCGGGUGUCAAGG,0.68
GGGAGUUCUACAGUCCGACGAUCUCAGAGGAAUAUCCUUGACUUCCCCCAGCAUGUUUCCCCCUCCAAGGACAUCCGGACAGCCAGCACAGAGGCCGACAAGAAGCUCUCUGAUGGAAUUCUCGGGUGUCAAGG,-0.0806
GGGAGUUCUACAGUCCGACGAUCUUUUAUUCUUCCAUCUUUUCCCACAGGUGGCAGCUGCCAACAAGAAGCAUUAGAACAAACCAUGCUGGGUUAAUAAAUUGCCUCAUUCGUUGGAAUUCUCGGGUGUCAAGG,-0.179
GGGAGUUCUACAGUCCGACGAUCGCAGGAAGUAAAUACAAAUGGAAAUGCUUCGGAUAGUGGCAGGGGUGGGGGUUGCUAAGGAAAGGGUGGGAUGGGAGUGGGUAAAGAGUUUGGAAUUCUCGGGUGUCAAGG,1.13
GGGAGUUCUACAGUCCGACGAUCCACAGACAACACGCACCCACACAGACACAGAGGGAAGGGGUUGGGAUGGGGACAGGGUGCACAGCAGGGCGGGGUAGGACCCCAGCCCCAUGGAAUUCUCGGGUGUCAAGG,1.78
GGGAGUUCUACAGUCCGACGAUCUGGGAGGUGGAUUUUGUUUAUUUUUUUAGCUCAUUUCCAGGGGUGGGAAUUUUUUUUUAAUAUGUGUCAUGAAUAAAGUUGUUUUUGCAAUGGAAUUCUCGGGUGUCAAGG,0.239
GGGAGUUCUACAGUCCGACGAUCUAACUUUAGAGGAGGAUCUGAUGGAUAUGGCAGUGGACGUGGAUCUGGGGAUGGCUAUAAUGGGUAUGGAGGAGGACCUGGAGGUGGCAAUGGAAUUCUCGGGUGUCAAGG,0.116
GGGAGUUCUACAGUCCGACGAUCUGGGAGGUGGAUUUUGUUUAUUUUUUUAGCUCAUUUCCAGGGGCGGGAAUUUUUUUUUAAUAUGUGUCAUGAAUAAAGUUGUUUUUGAAAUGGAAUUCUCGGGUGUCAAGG,0.041
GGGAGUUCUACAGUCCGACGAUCAGUCCUGUGCUACACAUCGUAUGUACCGAAUCGGGUGGGUUUUUGGGUUUUUUUGGGAAAGUAUUAUGUUACGCCGUUCGGAUCUGCACUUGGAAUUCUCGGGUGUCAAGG,-0.312

# For quick reference, copied from above (series 3):
Strand,E-score
GACGAAGA,0.041
GGACAGGA,-0.213
AACGCCAT,-0.00316
ATTAGACG,0.19
CCCATGGA,-0.125
CATGTGCG,0.0177
